Experimental data gathered from unrelated publications.
A part holds a random share of what one study measured.

Study 1
Target: Histone acetyltransferase KAT6A, winged helix 2, GST fusion (KAT6A, Homo sapiens, UniProt Q92794, residues 85-181)
Technique: protein binding microarray
Form: double-stranded DNA, one strand shown
Sample: in vitro
Tested at: not given
Notes: 8-mer, flanks averaged, mean of 2 arrays, mostly near background
Reference: not given
Direction: higher = stronger binding
Endpoint: E-score
Target sequence (chain): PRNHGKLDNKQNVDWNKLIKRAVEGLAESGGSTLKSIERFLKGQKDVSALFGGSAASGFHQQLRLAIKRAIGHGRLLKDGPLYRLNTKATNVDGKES
ATCAAATC: -0.0187
CAGTTTCG: 0.0291
CTATGTGC: -0.00898
GGCTAGAA: -0.102
AAACCAAA: 0.243
ATAGGAAG: 0.034
CACGTTAA: -0.0451
CGGAGAGC: 0.0902
AGAAAGTG: -0.0721
CCTACTGC: 0.0272
TTAATTAA: 0.0785
AGCATAAT: -0.0654
ATTATAAG: 0.0428
AATTTTCT: -0.0941
ATTCGTGA: -0.0916
CAAGAGTA: -0.0632
ACGACTTC: -0.142
AGATAGCG: 0.0224
GTATAGCA: 0.113

Study 2
Target: RNA binding protein fox-1 homolog 2, RRM domain, GST-SBP tag (RBFOX2, Homo sapiens, UniProt O43251-10, residues 100-194)
Technique: RNA Bind-n-Seq
Form: RNA
Sample: in vitro
Tested at: 365 nM
Notes: natural RNA segment, single round, ends assumed
Reference: no-protein control
Direction: higher = stronger binding
Endpoint: RBNS enrichment (R)
Shared flanks, not repeated: GGGAGUUCUACAGUCCGACGAUC … UGGAAUUCUCGGGUGCCAA
Construct (chain): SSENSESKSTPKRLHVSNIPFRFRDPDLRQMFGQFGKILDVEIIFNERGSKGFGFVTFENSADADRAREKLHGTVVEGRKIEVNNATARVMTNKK
CGAAGGAAGCUUAAAAAUUCUAUAUCCAGAUAAAAGACCACAAUAAAGCAAAAGUCACCUAUACCGUAAUAGAAAUGUUGCUAUCUCUAUACAAGUGCACUUUGAUCUGU: 0.377
GAUGAAGCAUGUACGUAUUAUUUAUAUGAUGGAAUUUCACGUUUUUAUGUAAGCAUGAAACACAGGCAGUAUGAGAGAAAGCAAGGCCCGUCAUGCUGUCCGUACACUAC: 7.02
AGUACUUCUCUACUAUCCUAUUAUUAGCUUCUAUCUCUUAGUGUAACUUCAAAACUUUUAAGAGCAGUGAAGUUGGUCAGGGACAUGUGGCCACUUAUUAUUACCUAAAG: 0.234
AAGUAGAAAAGAAUUGUUUACUAUUUGACCCACAUAUUAAACAUGCUUUUUUUCUCUAUUAUGGCAAAUAUUGAAUAUUCAUGAACAUAACUUGCUAAACAAGUAUUCCA: 0.625
AUAUAAUAUGAAAUGCUAUGUAAAGUUUUCUAUGUAAAAAUAUUAUGUAUAAUACUAUUAAAAUAUCCCAUGCUUUGAUCAGGUGGUACAUCAAUAAAAUUUUAAAAAGU: 0.656
CCCACUCUGAGAUGACAGUGGCUGACUUCCCGUGCUGGGCUUUUCCAUUGUCCCCCUGGCCUCCAGGCUCCUCCUCUGCCUCUCCAUGGAGUGGGUGGGGAGGUGGUGGG: 0.34
GCUCACUUUAUUAUCCCUAUUUUUAAAGUACACAAUUGUUUUACCUGUUCUGAAAUGUUCUUAAAUUUUGUAGGAUUUUUUUCCUCCCCACCUUCAAUGACUUCUAAUUU: 0.356
UGCUCCCAGCCACACUACCAUCCCAAGUCCCUUGCGGCCCUCUCUGUCUUCCUCAUUGCACUGCAAUGGGCAGGGGUAGGAGAUUGGAGAUAAGGAUGAAGGGGGAGGAA: 0.433

Study 3
Target: RING finger protein unkempt homolog, zinc fingers 1-6, GST-SBP tag (UNK, Homo sapiens, UniProt Q9C0B0, residues 30-357)
Chain of UniProt Q9C0B0 (30-357, looked up): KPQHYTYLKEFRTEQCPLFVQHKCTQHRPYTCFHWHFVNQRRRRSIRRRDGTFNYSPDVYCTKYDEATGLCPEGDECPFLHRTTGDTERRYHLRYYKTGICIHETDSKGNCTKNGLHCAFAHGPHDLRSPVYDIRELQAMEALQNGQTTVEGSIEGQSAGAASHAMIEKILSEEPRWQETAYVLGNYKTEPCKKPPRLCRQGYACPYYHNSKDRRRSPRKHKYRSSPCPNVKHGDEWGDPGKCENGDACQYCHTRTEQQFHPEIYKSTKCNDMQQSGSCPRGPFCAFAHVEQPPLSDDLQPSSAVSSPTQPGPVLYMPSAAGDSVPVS
Technique: RNA Bind-n-Seq
Form: RNA
Sample: in vitro
Tested at: not given
Notes: RNA with constant flanks, human and mouse sites, ends assumed
Reference: input RNA pool
Direction: higher = stronger binding
Endpoint: bound/input enrichment
Shared flanks, not repeated: GGGAGUUCUACAGUCCGACGAUC … CAACAGAGGAUUGAGCAUCA
CCUCUUUUCCAGUCUCAUGUUGAAGAUCUUUAUGUAGAAGGACUUCCUGAAGGAAUUCCUUUUAGAAGGCCAUCUACUUACGGAAUUCCUCGCCUGGAGAGGAUAUUACUUGCAAAGGAA: 0.178 ratio
CCUGGCUUCUUAAGGCUGUGCACCACUAUGGGAUCCUUUGCAGAAUGGUACUCAUAAAAUGGUUUAAACAACACAUGCUUAAUUGACUGUGCAGGAUGUCAAUCAAUCUGGGUUUGCUUU: 0.168 ratio
GUGUGCAAAAGCAAGAAGUCUUGGCAAGCGAGGCACACUGGUAUUAAGAUUGUACAACAGAUAGCCAUUCUCAUGGGCUGUGCUAUCUUGCCACAUCUCAGAAGUUUGGUUGAAAUCAUU: 0.0868 ratio
AGUCUUGUGAAUGAGACCACUUUGAUUAAAUACUCCAGGCUGCCAACCAUAAACAAGCAUAGUUUCCGGUACUUUGUCUUGGAUAACAGUGUCAUCCUGGCAAUGCUGGAACAACCUCUU: 0.129 ratio
UUCCUGUCACACCCAGUCGAGUGCAGAGGCCGAAGCAUCCCUCACACACGACCUGCAGGGCUUUUCCUGCACCGCGGAGCCGCGCAGCCUCCACGCUGCAAACUCUUAAAAGCGCCGAAC: 0.168 ratio
UAUGCAUUAGCAAAAGCUGAUUUCGAACAGAAAAUGACAGAAACAGCUCAGAAAUUUCAAGAUAUUGAAGAAACUCAUCUCAUUCACAUAAAGGAAAUUAUAGGAUCCUUGUCAAAUGCU: 0.658 ratio
CGGCGCCCUCUCUCCGUGUGGCCCCCUGAGCGGCCCCCCUCCCCUGCCCGGGAGGGAGGCGGGGGGCACCUGGGGCCCGCCAUGAACCCCGGCUUCGAUUUGUCCCGCCGGAACCCGCAG: 0.0646 ratio
ACCAGACGGGCGGGGAAUGGUGCCCUGGGUGGCCCCAAGGCCCACCGGAAGUUGCAGACACACCCAUCUCUCGCCAGCCAGGGCAGCAAGAAGAGUAAGAGCAGCAGCAAAUCCACCACC: 0.161 ratio

Study 4
Target: Ras GTPase-activating protein-binding protein 1, full length (G3BP1, Homo sapiens, UniProt Q13283)
Chain of UniProt Q13283 (whole entry, looked up): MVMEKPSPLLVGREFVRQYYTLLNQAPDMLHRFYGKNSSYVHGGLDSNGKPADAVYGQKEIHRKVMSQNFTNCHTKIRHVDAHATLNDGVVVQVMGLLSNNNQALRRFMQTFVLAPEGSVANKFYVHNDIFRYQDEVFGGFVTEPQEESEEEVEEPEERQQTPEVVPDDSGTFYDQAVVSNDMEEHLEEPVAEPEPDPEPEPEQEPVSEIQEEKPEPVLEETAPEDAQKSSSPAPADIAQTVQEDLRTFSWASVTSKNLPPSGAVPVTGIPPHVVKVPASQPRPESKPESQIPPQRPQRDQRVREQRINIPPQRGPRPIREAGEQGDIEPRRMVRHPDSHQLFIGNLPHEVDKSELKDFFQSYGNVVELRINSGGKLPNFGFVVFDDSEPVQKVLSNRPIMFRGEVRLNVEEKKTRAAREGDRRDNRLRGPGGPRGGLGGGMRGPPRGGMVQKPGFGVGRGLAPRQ
Technique: RNA Bind-n-Seq
Form: RNA
Sample: in vitro
Tested at: 200 nM
Notes: whole 134-nt RNA, ends assumed
Added: 150 mM LiCl
Reference: input library
Direction: higher = stronger binding
Endpoint: log2 enrichment
Each molecule: 7-deaza-guanosine replaces G
Shared flanks, not repeated: GGGAGUUCUACAGUCCGACGAUC … UGGAAUUCUCGGGUGUCAAGG
UGGGAGGUGGAUUUUGUUUAUUUUUUUAGCUCAUUUCCAGGGGUGGGAAUUUUUUUUUAAUAUGUGUCAUGAAUAAAGUUGUUUUUGGAA: -0.733
CACAGACAACACGCACCCACACAGACACAGAGGGAAGGAAAUGGGAUGGGGACAGGGUGCACAGCAGGGCGGGGUAGGACCCCAGCCCCU: -1.19
AGUCCUGUGCUACACAUCGUAUGUACCGAAUCGGGGUUUUGGGUUUUGGGGUUUUGGAAAGUAUUAUGUUACGCCGUUCGGAUCUGCACU: -0.233
CAAGUCCUGUGCUACACAUCGUAUGUACCGAAUCGGGGUUGGGGUUGGGGUUGGGGAAAGUAUUAUGUUACGCCGUUCGGAUCUGCACUU: -0.548
AGUCCUGUGCUACACAUCGUAUGUACCGAAUCGGAAAAAGGGAAAAAGGAAAAAGGGGAAAGUAUUAUGUUACGCCGUUCGGAUCUGCAC: -0.549
AGUCCUGUGCUACACAUCGUAUGUACCGAAUCGGAAAAAGGGAAAAAGGAAAAAGGGAAAGUAUUAUGUUACGCCGUUCGGAUCUGCACU: -1.07
GUCCUGUGCUACACAUCGUAUGUACCGAAUCGGGGAAAAAAAGGGGAGGGGAAAGGGGAAAGUAUUAUGUUACGCCGUUCGGAUCUGCAC: 0.366
UGUGCUACACAUCGUAUGUACCGAAUCGGGGUUUUUGGGGUUUUUUUGGGGAAAAAAAGGGGAAAGUAUUAUGUUACGCCGUUCGGAUCU: 0.629

Some of these lines once more (study 1):
GTATAGCA: 0.113
ACGACTTC: -0.142
TTAATTAA: 0.0785
AGAAAGTG: -0.0721
AGATAGCG: 0.0224
ATTATAAG: 0.0428
